{"data": "Measured values pooled from the literature", "note": "Lines come from different studies, so protocols differ. Values joined by “and” are separate records of one study, mostly repeats; a detail may differ. Numbers after ± are the reported error."}
{"SMILES": "Cc1cc(F)cc2c(CCC(=O)N[C@@H]3C(=O)NC[C@H]3O)c(-c3ccc(F)cc3)[nH]c12", "target": "adrenergic α1A receptor", "assay": "binding", "setting": "10 µM", "quantity": "inhibition", "value": "12.5%"}
{"SMILES": "[Cl-].[Cl-].[Pt+2].[Ru+2].c1ccc(-c2nc3ccccc3nc2-c2ccccn2)nc1.c1cnc2c(c1)ccc1cccnc12.c1cnc2c(c1)ccc1cccnc12", "target": "pcDNA supercoiled plasmid", "assay": "agarose gel electrophoresis", "setting": "50 µM, photoinduced cleavage, added: 0.1 µM pcDNA", "quantity": "supercoiled DNA", "value": "84.5%"}
{"SMILES": "O=C(O)CCCOc1cccc(CNC(=O)C#Cc2cn(Cc3ccc(C(=O)O)cc3)c(=O)[nH]c2=O)c1", "target": "MMP-14", "assay": "inhibitor, FRET", "setting": "10 µM", "quantity": "remaining MMP-14 activity", "value": "101 ± 1%"}
{"SMILES": "CCN(CC)c1ccc(/C=N/c2ccccc2Br)c(O)c1", "target": "yeast alpha-glucosidase", "assay": "enzyme activity", "setting": "added: pNPG", "quantity": "IC50", "value": "> 400000 nM"}
{"SMILES": "C=CC(=O)N1CCN(c2nc(=O)n(-c3c(C)ccnc3C(C)C)c3nc(-c4c(O)cccc4F)c(F)cc23)[C@@H](C)C1", "target": "HRAS wild type (human)", "assay": "SOS-mediated nucleotide exchange, inhibitor", "setting": "concentration not given", "quantity": "inhibition", "value": "inactive"}
{"SMILES": "CC[S+]([O-])c1nc(-c2ccccc2)cc(C(F)(F)F)n1 (stereo not shown)", "target": "importin beta-1", "assay": "SREBP1 nuclear import, high content imaging", "test system": "HeLa Kyoto", "setting": "50 µM, 3 h, added: glucose and MG132", "quantity": "cells with nuclear SREBP1", "value": "49.2% and 41.5% and 44.8% and 33.7%"}
{"SMILES": "c1coc(-c2n[nH]cc2-c2ccnc3ccccc23)c1", "target": "SHA3 (Candida albicans)", "assay": "kinase binding, MIB/MS competition", "test system": "Candida albicans lysate", "setting": "1 µM", "how to read": "reference: DMSO", "quantity": "log2 fold change", "value": -0.24}
{"SMILES": "[Cl-].[Cl-].[Pt+2].[Ru+2].c1ccc(-c2nccnc2-c2ccccn2)nc1.c1cnc2c(c1)ccc1cccnc12.c1cnc2c(c1)ccc1cccnc12", "target": "pcDNA supercoiled plasmid", "assay": "agarose gel electrophoresis", "setting": "10 µM, photoinduced cleavage, added: 0.1 µM pcDNA", "quantity": "supercoiled DNA", "value": "81.7%"}
{"SMILES": "CCc1cnc(NC(=O)c2cc(S(=O)(=O)N3CCOCC3)ccc2N2CCC(F)(F)C2)s1", "target": "oligosaccharyltransferase", "assay": "N-glycosylation, inhibitor, luciferase reporter", "quantity": "IC50", "value": "590 nM"}
{"SMILES": "[Cl-].[Cl-].[Pt+2].[Ru+2].c1ccc(-c2nc3cc4ccccc4cc3nc2-c2ccccn2)nc1.c1cnc2c(c1)ccc1cccnc12.c1cnc2c(c1)ccc1cccnc12", "target": "pcDNA supercoiled plasmid", "assay": "agarose gel electrophoresis", "setting": "10 µM, photoinduced cleavage, added: 0.1 µM pcDNA", "quantity": "nicked circular DNA", "value": "8.5%"}
{"SMILES": "FC(F)(F)c1ccc2nccc(NCCc3ccccc3)c2c1", "target": "CDK8/CDK19", "assay": "NF-κB reporter gene", "test system": "293-NFκB-Luc", "setting": "3 h, added: TNF-α 10 ng/mL", "quantity": "IC50", "value": "> 5000 nM"}
{"SMILES": "O=C(Nc1cc(OCCN2CCCC2)c2ccccc2n1)c1cc(Cl)cc(C(=O)Nc2cc(OCCN3CCCC3)c3ccccc3n2)n1", "target": "c-myc G-quadruplex DNA", "assay": "FRET melting", "setting": "1 µM, pH 7.4, added: 60 mM potassium", "quantity": "ΔTm", "value": "14.5 ± 0.8 K"}
{"SMILES": "CCS(=O)(=O)c1nc(C2CC2)cc(C(F)(F)F)n1", "target": "importin beta-1", "assay": "SREBP1 nuclear import, high content imaging", "test system": "HeLa Kyoto", "setting": "0.16 µM, 3 h, added: glucose and MG132", "quantity": "cells with nuclear SREBP1", "value": "84.8% and 83.5% and 88.9% and 90.2%"}
{"SMILES": "NCCOc1cc(C(=O)Nc2cc(OCCN)c3ccccc3n2)nc(C(=O)Nc2cc(OCCN)c3ccccc3n2)c1", "target": "c-myc G-quadruplex DNA", "assay": "FRET melting", "setting": "1 µM, pH 7.4, added: 60 mM potassium", "quantity": "ΔTm", "value": "16.8 ± 0.8 K"}
{"SMILES": "CC(Nc1nc(N2CCCC2)nc2ccccc12)c1ccccc1 (stereo not shown)", "target": "importin beta-1", "assay": "SREBP1 nuclear import, high content imaging", "test system": "HeLa Kyoto", "setting": "0.5 µM, 3 h, added: glucose and MG132", "quantity": "cells with nuclear SREBP1", "value": "90.1% and 85.6% and 86.6% and 88.6%"}
{"SMILES": "Oc1ccccc1-c1n[nH]cc1-c1ccnc2ccccc12", "target": "KIN3 (Candida albicans)", "assay": "kinase binding, MIB/MS competition", "test system": "Candida albicans lysate", "setting": "1 µM", "how to read": "reference: DMSO", "quantity": "log2 fold change", "value": -0.01}
{"note": "Excerpt of the above:"}
{"SMILES": "FC(F)(F)c1ccc2nccc(NCCc3ccccc3)c2c1", "target": "CDK8/CDK19", "assay": "NF-κB reporter gene", "test system": "293-NFκB-Luc", "setting": "3 h, added: TNF-α 10 ng/mL", "quantity": "IC50", "value": "> 5000 nM"}
{"SMILES": "O=C(Nc1cc(OCCN2CCCC2)c2ccccc2n1)c1cc(Cl)cc(C(=O)Nc2cc(OCCN3CCCC3)c3ccccc3n2)n1", "target": "c-myc G-quadruplex DNA", "assay": "FRET melting", "setting": "1 µM, pH 7.4, added: 60 mM potassium", "quantity": "ΔTm", "value": "14.5 ± 0.8 K"}
